Published values collected from several papers.
Each line is one published result; not all experiments were run side by side. ± gives the spread as reported.
PTPN1: Tyrosine-protein phosphatase non-receptor type 1 (PTPN1, Homo sapiens, UniProt P18031)

By UniProt entry, the sequences of proteins in these tests, tags left out. Where a name states a change or a piece, a line headed by the entry shows the natural chain unless it says otherwise. Residues count along the entry.
UniProt P18031, 1-321 limits assumed: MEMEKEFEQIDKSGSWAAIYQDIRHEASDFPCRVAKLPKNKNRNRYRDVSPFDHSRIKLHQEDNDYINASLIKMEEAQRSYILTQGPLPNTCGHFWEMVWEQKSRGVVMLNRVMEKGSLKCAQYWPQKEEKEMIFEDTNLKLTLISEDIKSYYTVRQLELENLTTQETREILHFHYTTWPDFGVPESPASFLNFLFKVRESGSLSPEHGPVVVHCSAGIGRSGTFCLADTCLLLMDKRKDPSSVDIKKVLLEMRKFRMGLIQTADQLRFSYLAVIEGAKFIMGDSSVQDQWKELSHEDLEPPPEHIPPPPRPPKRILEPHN
UniProt P51570, whole entry: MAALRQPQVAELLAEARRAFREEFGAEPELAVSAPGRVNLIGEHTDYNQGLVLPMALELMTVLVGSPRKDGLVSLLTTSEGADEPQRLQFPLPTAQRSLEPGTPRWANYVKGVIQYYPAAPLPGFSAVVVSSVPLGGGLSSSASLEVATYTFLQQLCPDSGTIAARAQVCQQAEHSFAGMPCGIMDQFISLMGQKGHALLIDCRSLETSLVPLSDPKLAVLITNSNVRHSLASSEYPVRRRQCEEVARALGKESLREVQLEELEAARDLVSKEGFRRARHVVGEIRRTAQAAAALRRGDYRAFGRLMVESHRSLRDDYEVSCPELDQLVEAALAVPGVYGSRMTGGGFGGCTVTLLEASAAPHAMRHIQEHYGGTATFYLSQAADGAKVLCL
UniProt P28340, whole entry: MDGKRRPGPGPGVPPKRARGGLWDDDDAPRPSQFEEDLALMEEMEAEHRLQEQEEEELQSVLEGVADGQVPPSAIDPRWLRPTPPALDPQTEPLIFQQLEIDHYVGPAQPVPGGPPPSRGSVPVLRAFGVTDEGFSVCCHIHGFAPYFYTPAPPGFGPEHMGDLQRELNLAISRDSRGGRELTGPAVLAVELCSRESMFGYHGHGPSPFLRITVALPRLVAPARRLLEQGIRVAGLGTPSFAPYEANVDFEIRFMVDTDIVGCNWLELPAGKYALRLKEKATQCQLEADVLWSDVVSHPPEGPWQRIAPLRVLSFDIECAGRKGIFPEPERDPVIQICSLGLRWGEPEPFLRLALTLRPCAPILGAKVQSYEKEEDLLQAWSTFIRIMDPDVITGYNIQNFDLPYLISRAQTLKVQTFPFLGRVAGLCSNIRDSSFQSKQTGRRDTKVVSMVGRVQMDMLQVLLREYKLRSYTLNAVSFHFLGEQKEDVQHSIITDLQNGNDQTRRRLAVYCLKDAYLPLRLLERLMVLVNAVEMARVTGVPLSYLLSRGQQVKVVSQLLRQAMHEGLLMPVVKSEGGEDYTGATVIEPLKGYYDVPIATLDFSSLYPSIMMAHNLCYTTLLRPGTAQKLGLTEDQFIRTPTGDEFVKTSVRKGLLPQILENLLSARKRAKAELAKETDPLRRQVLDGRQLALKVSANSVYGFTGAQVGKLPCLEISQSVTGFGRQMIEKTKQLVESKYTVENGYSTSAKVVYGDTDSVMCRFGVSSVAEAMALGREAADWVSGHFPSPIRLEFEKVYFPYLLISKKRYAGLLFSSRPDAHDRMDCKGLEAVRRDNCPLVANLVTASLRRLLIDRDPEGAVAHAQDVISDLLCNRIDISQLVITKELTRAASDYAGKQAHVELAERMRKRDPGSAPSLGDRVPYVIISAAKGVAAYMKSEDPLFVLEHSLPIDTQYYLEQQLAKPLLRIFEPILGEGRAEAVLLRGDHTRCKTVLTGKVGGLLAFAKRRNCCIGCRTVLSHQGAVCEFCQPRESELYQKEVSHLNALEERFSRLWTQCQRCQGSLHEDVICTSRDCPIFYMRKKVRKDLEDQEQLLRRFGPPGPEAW
UniProt O15151, 23-111 limits assumed: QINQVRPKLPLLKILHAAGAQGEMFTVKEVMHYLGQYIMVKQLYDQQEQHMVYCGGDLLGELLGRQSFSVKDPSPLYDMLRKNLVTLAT
UniProt Q7XJR9, whole entry: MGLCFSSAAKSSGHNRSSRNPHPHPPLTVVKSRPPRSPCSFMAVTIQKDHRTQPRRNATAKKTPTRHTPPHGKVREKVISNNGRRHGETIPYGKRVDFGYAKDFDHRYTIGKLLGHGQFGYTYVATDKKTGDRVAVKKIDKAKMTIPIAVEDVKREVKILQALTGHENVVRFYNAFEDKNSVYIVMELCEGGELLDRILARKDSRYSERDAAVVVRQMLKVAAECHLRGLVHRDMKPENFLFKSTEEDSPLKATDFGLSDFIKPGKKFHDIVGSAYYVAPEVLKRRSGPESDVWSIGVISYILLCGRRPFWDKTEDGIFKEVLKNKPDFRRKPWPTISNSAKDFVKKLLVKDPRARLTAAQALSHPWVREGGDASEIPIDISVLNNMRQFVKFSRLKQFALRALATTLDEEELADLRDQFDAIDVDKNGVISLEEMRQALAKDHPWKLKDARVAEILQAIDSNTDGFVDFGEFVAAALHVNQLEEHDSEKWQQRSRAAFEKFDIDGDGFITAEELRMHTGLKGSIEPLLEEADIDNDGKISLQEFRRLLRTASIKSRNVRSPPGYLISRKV
UniProt Q16539, whole entry: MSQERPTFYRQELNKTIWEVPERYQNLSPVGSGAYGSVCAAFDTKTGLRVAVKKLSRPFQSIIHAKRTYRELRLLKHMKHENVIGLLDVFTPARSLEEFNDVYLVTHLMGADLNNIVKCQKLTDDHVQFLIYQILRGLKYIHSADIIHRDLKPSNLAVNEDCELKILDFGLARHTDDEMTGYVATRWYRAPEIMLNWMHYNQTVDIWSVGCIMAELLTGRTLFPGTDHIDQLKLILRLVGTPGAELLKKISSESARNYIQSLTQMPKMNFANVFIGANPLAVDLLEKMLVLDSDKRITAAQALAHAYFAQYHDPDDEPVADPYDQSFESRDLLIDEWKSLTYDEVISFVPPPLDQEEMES
UniProt P14416, whole entry: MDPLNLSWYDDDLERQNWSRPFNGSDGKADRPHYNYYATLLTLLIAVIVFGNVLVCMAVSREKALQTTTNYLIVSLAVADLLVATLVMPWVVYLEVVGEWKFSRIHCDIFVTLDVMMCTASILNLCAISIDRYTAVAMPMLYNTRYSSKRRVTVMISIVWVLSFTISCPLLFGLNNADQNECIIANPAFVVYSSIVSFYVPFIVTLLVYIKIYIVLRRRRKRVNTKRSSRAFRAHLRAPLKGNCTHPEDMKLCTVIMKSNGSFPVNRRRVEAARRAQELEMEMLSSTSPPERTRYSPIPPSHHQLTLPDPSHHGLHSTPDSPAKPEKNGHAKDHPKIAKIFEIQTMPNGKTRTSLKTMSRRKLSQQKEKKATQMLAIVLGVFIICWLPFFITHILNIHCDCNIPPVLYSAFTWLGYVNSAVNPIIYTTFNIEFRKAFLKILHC
UniProt P16083, whole entry: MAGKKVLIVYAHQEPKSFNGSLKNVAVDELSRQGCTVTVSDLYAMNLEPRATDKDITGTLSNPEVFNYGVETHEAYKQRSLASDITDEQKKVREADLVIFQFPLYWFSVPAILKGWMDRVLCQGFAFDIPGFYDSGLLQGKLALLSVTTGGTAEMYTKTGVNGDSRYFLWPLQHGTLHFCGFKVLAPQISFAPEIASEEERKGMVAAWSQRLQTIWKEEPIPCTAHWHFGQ
UniProt P25090, whole entry: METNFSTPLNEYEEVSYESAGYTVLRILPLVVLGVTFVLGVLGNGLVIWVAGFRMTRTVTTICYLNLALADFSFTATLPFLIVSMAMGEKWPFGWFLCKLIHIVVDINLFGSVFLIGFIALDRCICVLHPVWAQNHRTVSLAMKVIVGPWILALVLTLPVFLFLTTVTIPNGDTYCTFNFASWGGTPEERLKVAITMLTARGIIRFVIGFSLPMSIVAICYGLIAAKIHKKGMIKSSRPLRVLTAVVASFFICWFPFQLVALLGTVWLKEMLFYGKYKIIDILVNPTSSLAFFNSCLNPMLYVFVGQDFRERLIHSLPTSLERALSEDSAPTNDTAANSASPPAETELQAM
UniProt Q9BY41, whole entry: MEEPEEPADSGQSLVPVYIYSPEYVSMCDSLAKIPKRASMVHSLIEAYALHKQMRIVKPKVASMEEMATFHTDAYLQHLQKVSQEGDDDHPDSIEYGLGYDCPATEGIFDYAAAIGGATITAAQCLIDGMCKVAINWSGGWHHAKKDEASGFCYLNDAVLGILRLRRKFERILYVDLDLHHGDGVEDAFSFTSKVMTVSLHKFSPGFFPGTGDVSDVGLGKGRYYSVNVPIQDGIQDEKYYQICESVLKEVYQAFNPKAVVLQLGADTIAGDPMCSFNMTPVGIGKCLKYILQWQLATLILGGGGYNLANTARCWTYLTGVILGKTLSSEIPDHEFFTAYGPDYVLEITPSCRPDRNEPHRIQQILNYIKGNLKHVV
UniProt P61981, whole entry: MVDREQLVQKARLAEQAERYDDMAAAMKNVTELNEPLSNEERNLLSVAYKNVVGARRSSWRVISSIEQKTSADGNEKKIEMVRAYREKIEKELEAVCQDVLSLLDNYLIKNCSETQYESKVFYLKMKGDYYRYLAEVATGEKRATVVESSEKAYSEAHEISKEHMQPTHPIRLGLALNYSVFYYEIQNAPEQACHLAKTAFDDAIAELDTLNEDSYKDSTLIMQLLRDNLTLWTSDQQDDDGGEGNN

Cc1ccc(S(=O)(=O)Nc2ccccc2C(=O)Nc2nc(-c3ccccc3)cs2)cc1  maximal inhibition (Galactokinase (GALK1, Homo sapiens, UniProt P51570); enzyme activity, inhibitor; 57 µM): 100%
CC/C=C\C/C=C\CCC/C=C/C=C/C=C\CCCC(=O)O  IC50 (DNA polymerase delta catalytic subunit (POLD1, Homo sapiens, UniProt P28340); enzyme activity, inhibitor; together with: 0.05 units polymerase): 31.8 ± 2 µM
CC(=O)N[C@@H](C)C(=O)N[C@@H](Cc1c[nH]c2ccccc12)C(=O)N[C@@H](CO)C(=O)N[C@@H](Cc1ccc(OP(=O)(O)O)cc1)C(=O)N[C@@H](C)C(=O)N[C@@H](CC(=O)O)C(=O)N[C@@H](Cc1ccc(OP(=O)(O)O)cc1)C(=O)N[C@@H](C)C(=O)N[C@@H](C)C(N)=O  Km (PTPN1; substrate, continuous UV; pH 7.4, multiply phosphorylated peptides apparent): 0.91 ± 0.08 µM
CCOC(=O)c1c(-c2ccc(Cl)cc2Cl)n(-c2nc(-c3ccc(Cl)cc3)c3c(NC(=O)c4ccccc4)nnc-3[nH]2)[nH]c1=O  cell growth (UACC-257; SRB; 10 µM): 20.2%
COc1ccc(C2=N[C@@H](c3cccc(Cl)c3)[C@@H](c3ccc(Cl)cc3)N2C(=O)N2CCNC(=O)C2)c(OC(C)C)c1 (relative stereo)  -TΔS (Protein Mdm4 (MDM4, Homo sapiens, UniProt O15151); isothermal titration calorimetry; 298 K): -1.3 ± 5.2 kcal/mol
CC(C)CC(NC(=O)C(Cc1ccccc1)NC(=O)c1cnc(C(=O)NC(Cc2ccccc2)C(=O)NC(CC(C)C)B(O)O)cn1)B(O)O (stereo not shown)  IC50 (proteasome (human); trypsin-like activity, inhibitor, Proteasome-Glo; MM.1R; 24 h): > 0.018 µM
CC[C@H](C)[C@H](NC(=O)[C@H](CCCNC(=N)N)NC(=O)[C@H](CO)NC(=O)[C@@H](NC(=O)[C@@H](NC(=O)[C@H](CCCCN)NC(=O)[C@@H](N)C(C)C)[C@@H](C)CC)[C@@H](C)CC)C(=O)N[C@@H](Cc1ccccc1)C(=O)N[C@@H](CO)C(=O)N[C@@H](CCC(N)=O)C(=O)N[C@@H](CCCNC(=N)N)C(=O)N[C@@H](CO)C(=O)N[C@@H](Cc1ccccc1)C(=O)N[C@@H](CCCNC(=N)N)C(=O)N[C@@H](CCCNC(=N)N)C(=O)O  relative phosphorylation (CPK16 (Arabidopsis thaliana, UniProt Q7XJR9); peptide phosphorylation, substrate, scintillation proximity; 20 µM, 24 min, together with: 10 µM ATP; reference: no peptide control, higher = more phosphorylation): 10 fold
CC(C)C[C@H](NC(=O)[C@H](C)NC(=O)[C@H](CCCNC(=N)N)NC(=O)[C@H](CCCNC(=N)N)NC(=O)[C@H](CCCNC(=N)N)NC(=O)[C@H](C)NC(=O)[C@H](CC(C)C)NC(=O)[C@H](CCCNC(=N)N)NC(=O)[C@H](CO)NC(=O)[C@H](CCCCN)NC(=O)[C@H](CO)NC(=O)Cn1cc(COC(=O)[C@]2(C)C=C(C(=O)OC(C)(C)C)C(=O)CC2)nn1)C(=O)O  normalized kinase activity (Mitogen-activated protein kinase 14 (MAPK14, Homo sapiens, UniProt Q16539); enzyme activity, inhibitor, D-SENSOR; 22.22 µM): 0.0129
COc1ccc2c(CC(=O)N3CCC[C@H]3C(=O)N[C@@H](CC(C)C)C(=O)NCC(=O)N[C@@H](CC(C)C)C(=O)N[C@@H](CNc3ccc([N+](=O)[O-])cc3[N+](=O)[O-])C(=O)N[C@@H](C)C(=O)N[C@@H](CCCNC(=N)N)C(N)=O)cc(=O)oc2c1  kcat (Matrix metalloproteinase-14 (MMP14, Homo sapiens, UniProt P50281); substrate, FRET peptide cleavage; 0.5 to 4.5 µM, pH 8.0, 37 °C, together with: refolded enzyme 15 nM): 0.00097 ± 5e-05 s⁻¹
CC(C)C[C@H](NC(=O)[C@@H](NC(=O)[C@H](CC(C)C)NC(=O)[C@H](CS)NC(=O)CNS(=O)(=O)c1cccc2c(N(C)C)cccc12)C(C)C)C(=O)O  kcat (geranylgeranyltransferase type-I (Rattus norvegicus, UniProt P53610+Q04631); substrate, fluorescence; 30 °C, GGPP 10 µM/enzyme 10 nM, together with: GTP 30 µM): 0.052 ± 0.011 s⁻¹
CCn1c2c(c3ccccc31)CCN(CCCCNC(=O)c1ccc3[nH]c4ccccc4c3c1)C2  inhibition (D(2) dopamine receptor (DRD2, Homo sapiens, UniProt P14416); binding; 10 µM): 19.2 ± 8.3%
CCN(CC)CCCC(C)Nc1cc(-c2ccccc2)nc2cc(OC)ccc12 (stereo not shown)  binding free energy (Ribosyldihydronicotinamide dehydrogenase [quinone] (NQO2, Homo sapiens, UniProt P16083); from IC50 by Cheng-Prusoff): -8.59 kcal/mol
CN1C(=O)CCc2cc(CNC(C)(C)[C@@H](O)c3ccccc3)ccc21  AUC(0-t) (male CD-1 mouse, brain; subcutaneous, 10 mg/kg): 247000 ng·min/mL/g
COc1ccc(-c2cn3cccnc3n2)cc1NC(=O)C(C)C  affinity ratio (N-formyl peptide receptor 2 (FPR2, Homo sapiens, UniProt P25090); reference: FPR2 over FPR1): ~20 fold
CC(=O)NCCCC[C@H](NC(=O)[C@H](CCCCNC(C)=O)NC(=O)[C@H](Cc1c[nH]cn1)NC(=O)[C@H](CCCNC(=N)N)NC(C)=O)C(=O)Nc1ccc2c(C)cc(=O)oc2c1  kcat/KM (Histone deacetylase 8 (HDAC8, Homo sapiens, UniProt Q9BY41); deacetylation, substrate; 25 °C, together with: 150 nM enzyme): 259 ± 19 M⁻¹ s⁻¹
N#Cc1c(-c2ccc(Cl)cc2Cl)n(-c2nc(-c3ccc(Cl)cc3)c3c(NC(=O)c4ccccc4)nnc-3[nH]2)[nH]c1=O  cell growth (UACC-257; SRB; 10 µM): 69.7%
C=C(C)C(=O)Nc1ccc(-c2c(-c3ccc(Oc4nccc(C)n4)c(F)c3)c3c(N)ncnc3n2C)cc1  area over GR curve (MFE-296; cell growth, CellTiter-Glo; 120 h, unit not given; reference: untreated growth rate, higher = stronger inhibition): 0.543
CC(=O)N[C@@H](C)C(=O)N[C@@H](CCCCN)C(=O)N[C@@H](Cc1ccccc1)C(=O)N[C@@H](CCC(=O)O)C(=O)N[C@@H](CC(=O)O)C(=O)N[C@H](C(=O)N[C@@H](Cc1ccc(OP(=O)(O)O)cc1)C(=O)N[C@@H](C)C(=O)N[C@@H](C)C(N)=O)[C@@H](C)O  Km (PTPN1; substrate, continuous UV; pH 7.4, multiply phosphorylated peptides apparent): 3.5 ± 1 µM
CC[C@H](C)[C@H](NC(=O)[C@H](CCCCN)NC(=O)[C@H](CCCNC(=N)N)NC(=O)[C@H](CCCCN)NC(C)=O)C(=O)N[C@@H](CC(C)C)C(=O)N[C@@H](CO)C(=O)N[C@@H](COP(=O)(O)O)C(=O)N[C@@H](CC(=O)O)C(=O)N[C@@H](CC(=O)O)C(=O)N[C@@H](CO)C(=O)N[C@@H](CC(C)C)C(=O)N[C@@H](CCCNC(=N)N)C(=O)N[C@@H](CO)C(N)=O  ΔH (14-3-3 protein gamma (YWHAG, Homo sapiens, UniProt P61981); isothermal titration calorimetry; pH 7.4, 37 °C): -6.1 kcal/mol

Some of these lines once more:
CC(=O)N[C@@H](C)C(=O)N[C@@H](CCCCN)C(=O)N[C@@H](Cc1ccccc1)C(=O)N[C@@H](CCC(=O)O)C(=O)N[C@@H](CC(=O)O)C(=O)N[C@H](C(=O)N[C@@H](Cc1ccc(OP(=O)(O)O)cc1)C(=O)N[C@@H](C)C(=O)N[C@@H](C)C(N)=O)[C@@H](C)O  Km (PTPN1; substrate, continuous UV; pH 7.4, multiply phosphorylated peptides apparent): 3.5 ± 1 µM
